Measured values from different studies.
Lines come from different studies, so protocols differ. “And” joins repeats or separate records; there may be more than shown.
BRAF: Serine/threonine-protein kinase B-raf (BRAF, Homo sapiens, UniProt P15056)
UniProt P15056, sequence (whole entry, unmodified, looked up): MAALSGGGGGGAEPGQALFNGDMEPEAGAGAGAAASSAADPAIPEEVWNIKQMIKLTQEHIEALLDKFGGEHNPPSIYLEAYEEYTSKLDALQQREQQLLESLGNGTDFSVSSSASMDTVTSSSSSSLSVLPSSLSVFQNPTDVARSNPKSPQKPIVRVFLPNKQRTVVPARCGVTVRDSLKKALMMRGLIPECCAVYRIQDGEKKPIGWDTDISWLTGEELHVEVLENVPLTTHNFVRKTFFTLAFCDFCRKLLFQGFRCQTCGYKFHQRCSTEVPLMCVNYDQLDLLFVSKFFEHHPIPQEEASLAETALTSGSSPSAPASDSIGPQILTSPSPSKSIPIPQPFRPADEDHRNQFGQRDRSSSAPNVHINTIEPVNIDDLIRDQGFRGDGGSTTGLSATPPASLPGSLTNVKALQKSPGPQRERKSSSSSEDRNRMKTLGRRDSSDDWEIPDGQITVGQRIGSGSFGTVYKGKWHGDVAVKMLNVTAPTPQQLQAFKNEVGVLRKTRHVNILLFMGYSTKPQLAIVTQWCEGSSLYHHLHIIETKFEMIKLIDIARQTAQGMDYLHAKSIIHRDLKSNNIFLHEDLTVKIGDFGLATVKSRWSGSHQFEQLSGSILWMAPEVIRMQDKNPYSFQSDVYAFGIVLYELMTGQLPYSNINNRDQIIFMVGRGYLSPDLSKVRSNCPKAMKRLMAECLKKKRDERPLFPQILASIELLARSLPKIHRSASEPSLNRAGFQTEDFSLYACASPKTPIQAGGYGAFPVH
BRAF V600E: Serine/threonine-protein kinase B-raf (BRAF, Homo sapiens, UniProt P15056, V600E)

| SMILES | target | assay | setting | measurement | result |
| --- | --- | --- | --- | --- | --- |
| CCOC(=O)[C@@H]1Cc2c(cc([N+](=O)[O-])cc2[N+](=O)[O-])[C@H](O)[C@]12C(=O)Nc1ccc(Br)cc12 | BRAF | binding, competition with immobilised ligand | 0.1 µM | remaining binding | 88% |
| O=C(O)c1ccccc1/C=N/Nc1nc(-c2ccccc2Cl)cs1 | BRAF V600E | enzyme activity, inhibitor | 1 µM | inhibition | -7.11% |
| [CH3][Ti+2][O]C(=O)c1ccc([S][Au][PH](c2ccccc2)(c2ccccc2)c2ccccc2)cc1.c1cc[cH-]c1.c1cc[cH-]c1 | BRAF | kinase activity, HotSpot kinase | 1 µM, with: ATP 10 µM | remaining activity | 102% and 101% |
| C[C@H](NCc1ccc(-c2ccc(C(F)(F)F)cc2)cc1)C(N)=O | BRAF V600E | cell-free assay, competition with immobilised ligand | 1 µM | inhibition | 9% |
| CC(C)[C@H]1NC(=O)C[C@H]2/C=C/CCSSC[C@@H](NC1=O)C(=O)N[C@H](Cc1cccc3ccccc13)C(=O)NCC(=O)O2 | BRAF V600E | enzyme activity, inhibitor | 10 µM | inhibition | 7.1% |
| CN(C)[C@H]1C[C@@]23CC[C@@]4(O2)C(=CC[C@]2(C)[C@@H](c5ccc6ccncc6c5)CC[C@H]24)C=C3[C@@H](O)[C@@H]1O | BRAF | ATP probe labelling, inhibitor, KiNativ profiling | 1 µM | inhibition | -7.7% |
| Nc1ccc(/C=C/C(=O)N2CCc3c(oc4c(-c5ccc(F)cc5)cc(-c5ccc(C(=O)N6CCC(F)(F)CC6)cn5)cc34)C2)cn1 | BRAF V600E | binding, competition with immobilised ligand | 1 µM | remaining binding | 100% |
| CS(C)(=O)=Nc1ccc(-c2ccc(-c3nc4cc(O[C@@H]5CO[C@H]6[C@@H]5OC[C@H]6O)[nH]c4cc3F)cc2)cc1 | BRAF V600E | enzyme activity, inhibitor | 10 µM | inhibition | 1% |
